# Results gathered from unrelated publications.
# Each numbered part is a random draw from the data of one study; scales do not carry over between parts. Positions count from the first letter of the parent shown.

# Set 1
# Target: Fragile X messenger ribonucleoprotein 1, C-terminal low-complexity region (Fmr1, Mus musculus, UniProt P35922)
# Technique: RNA Bind-n-Seq
# Form: RNA
# Medium: in vitro
# Concentration: 200 nM
# Setting: whole 134-nt RNA, ends assumed
# Added: 150 mM KCl
# Baseline: input library
# Direction: higher = stronger binding
# Constant ends, left off below: GGGAGUUCUACAGUCCGACGAUC … UGGAAUUCUCGGGUGUCAAGG
Strand,log2 enrichment
UCCUGUGCUACACAUCGUAUGUACCGAAUCGGGUUUUUUUGGGUUUUUUUGGGUUUGGGAAAGUAUUAUGUUACGCCGUUCGGAUCUGCA,0.241
AAGUCCUGUGCUACACAUCGUAUGUACCGAAUCGGGCCCCGGGGCCCCGGCCCCGGAAAGUAUUAUGUUACGCCGUUCGGAUCUGCACUU,-0.896
UCAAGUCCUGUGCUACACAUCGUAUGUACCGAAUCGGGUUUGGGUGGGAAAGGGAAAGUAUUAUGUUACGCCGUUCGGAUCUGCACUUCC,1.19
AGUCCUGUGCUACACAUCGUAUGUACCGAAUCGGGGUUUUGGUUUUGGGUUUUGGGGAAAGUAUUAUGUUACGCCGUUCGGAUCUGCACU,0.236
CAACGUUGAAAUGGAUUGGGUGUUGAAGCAUACUGGUCCAAAUAGUCCUGACACGGCCAAUGAUGGCUUUGUACGGCUUAGAGGACUUCC,-1.73
CAAGUCCUGUGCUACACAUCGUAUGUACCGAAUCGGUGGAAAAAGGUUUUUUUGGAAAGUAUUAUGUUACGCCGUUCGGAUCUGCACUUC,-0.739
CCUCAAGUCCUGUGCUACACAUCGUAUGUACCGAAUCGGGUUGGUUGGGUUGGAAAGUAUUAUGUUACGCCGUUCGGAUCUGCACUUCCA,0.0103
CACAGACAACACGCACCCACACAGACACAGAGGGAAGGGGUUGGGAUGGGGACAGGGUGCACAGCAGGGCGGGGUAUGACCCCAGCCCCU,1.35
AAGUCCUGUGCUACACAUCGUAUGUACCGAAUCGGGUUUUUGGGAAAAAGGGUGGGAAAGUAUUAUGUUACGCCGUUCGGAUCUGCACUU,0.807

# Set 2
# Target: ABI1, truncated, D143A, DHFR fusion (Arabidopsis thaliana)
# Technique: DHFR PCA, deep sequencing
# Medium: yeast
# Setting: methotrexate growth selection, single substitutions
# Added: (+)-ABA 0.032 µM
# Baseline: wild-type fitted maximum
# Direction: higher = stronger binding
# Starting sequence: PYL1, truncated, DHFR fusion (Arabidopsis thaliana); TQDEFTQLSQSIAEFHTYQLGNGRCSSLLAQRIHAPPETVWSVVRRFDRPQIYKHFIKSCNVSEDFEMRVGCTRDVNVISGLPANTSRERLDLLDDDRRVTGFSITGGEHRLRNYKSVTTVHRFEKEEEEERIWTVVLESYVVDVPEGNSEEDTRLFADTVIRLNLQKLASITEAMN
Change,relative binding score [%]
F15R,-1.13
F157M,3.22
V145D,-3.22
S59E,24
L156R,0.734
E131F,16.4
Q2D,30.2
L156A,8.87
D3T,16.5
N85T,60.7
L156Q,6.91
T160A,8.26
D48P,-1.38
T73E,30.8

# Set 3
# Target: RNA binding protein fox-1 homolog 2, RRM domain, GST-SBP tag (RBFOX2, Homo sapiens, UniProt O43251-10, residues 100-194)
# Technique: RNA Bind-n-Seq
# Form: RNA
# Medium: in vitro
# Concentration: 365 nM
# Setting: natural RNA segment, single round, ends assumed
# Baseline: no-protein control
# Direction: higher = stronger binding
# Constant ends, left off below: GGGAGUUCUACAGUCCGACGAUC … UGGAAUUCUCGGGUGCCAA
# Target sequence (chain): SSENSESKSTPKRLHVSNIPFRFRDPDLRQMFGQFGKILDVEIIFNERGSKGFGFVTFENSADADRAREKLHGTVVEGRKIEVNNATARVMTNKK
Strand,RBNS enrichment (R)
GAGGGAGCCUUUCUCUAAGCCCUGCACUAACCCACUCCUCCCAAGACUCUUGUGGAGUGACAGUUCCAAGCUGAACCAUAAAUCACUGAUGCACAAAACACUGCUAGAAG,0.305
CCCGGGAACCCCUUCCACCAUAGAGACAACCCCUCGCUAGACGUGAACUCAGAACUGUCGGAGGAAAGACAACACAACCAACGCGAAACCAAUUCCUCAUCCUCAGAUGC,0.353
AGAACACUUUUGAUCCAUCACAGCAGGUCACCAGCCAUGACAAGGCUCAAUCUAGGACUCUCAGCUUCCUGCGCUGCUGGACACAUUGACCUCUGUGCAAACAUUGUAGA,0.29
UUUACUGAAUCUGUCUACCCUUCAUUCAUGAGAACUCCAGAAUGAGUGUUGACCACUGAAGCAUCUUUUAAGUCUGUGUUCCAUUGUGCCAUUCAGGUUUGCUGUCACAU,6.04
UGGCCAUGGUACCCCCUUCUGGGCAUCUGUUCUGGUUUUUAACCAUUGUCUUGUUCUGUGAUGAGGGGAGGGGGGCACAUGCUGAGUCUCCCAAGGCUGCGUCUGGAGGG,1.7
GCCACUUGAACCUUCAAUAAAGGCUGUUGCCUAAACAUGGCGUACUUCAUCUGUUCCCGCCUCUGCCAUCUGCUACGGUGUCGUCAGUUGUAUGGCAUUAAUUUCCUGCC,0.229
CUAAAUGUUCUCUUUGCCAUAAAGACUCCGUGUUAACUGUGUAAACACUUGGGAUUUUUCUCCUAUGUCCCGAGGUCUGGUCUUGAUUUCUUUUUUGGGUUUCUUUCUAG,0.403
CCAGGGAGGAGCCUGAGCAGCUUCCAUAGCAGAUCCGUUGCCAGUUACCUGGCCUGUAAGCUUCUUACUGAUUGAUUGUCUAAGGCUCCUGUCAGAGCCCACCUAGAAGC,0.416

# Set 4
# Target: CCND1, cyclin fold, Cln2 fusion (human)
# Technique: yeast growth competition, sequencing
# Medium: yeast
# Setting: weak parent motif
# Baseline: not given
# Direction: higher = stronger binding
# Starting sequence: CDKN1B docking peptide (human); PSACRNLFGPVDH; partner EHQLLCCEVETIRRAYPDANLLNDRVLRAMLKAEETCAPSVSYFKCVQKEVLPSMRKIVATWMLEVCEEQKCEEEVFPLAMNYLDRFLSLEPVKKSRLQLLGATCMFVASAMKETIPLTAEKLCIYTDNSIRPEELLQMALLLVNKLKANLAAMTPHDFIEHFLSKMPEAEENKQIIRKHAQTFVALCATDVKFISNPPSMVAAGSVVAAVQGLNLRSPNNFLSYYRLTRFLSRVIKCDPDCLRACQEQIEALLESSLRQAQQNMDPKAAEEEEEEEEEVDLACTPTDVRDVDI
Change,normalised enrichment score
P1R,0.849
R5H,0.316
A3L,0.187
V11N,0.915
P1K,1.04
C4S,0.429
D12N,0.637
L7N,-0.429
R5C,0.27
A3I,0.755
H13T,1.37
V11A,0.455
V11L,0.636
P1H,0.802
H13F,1.18
L7Y,-0.108
A3Y,0.0597
S2G,0.095

# A few entries again (set 2):
Change,relative binding score [%]
L156Q,6.91
E131F,16.4
L156R,0.734
S59E,24
F157M,3.22
T73E,30.8
